# Published values pooled from the literature.
# Each line is one published result; not all experiments were run side by side. Several values in a cell are separate wells, animals, samples, runs or records.
# Target: Tyrosine-protein kinase Fes/Fps (FES, Homo sapiens, UniProt P07332)
SMILES,test,setting,scale,quantity,result
CNC(=O)C[C@H](Cc1ccc(C#N)cc1)NC(=O)c1cc(-c2ccc(CN[C@H](C)c3ccc(C)cc3)o2)ccc1Cl,"enzyme activity, inhibitor",1 µM,,activity vs control,99%
C=CC(=O)N1CCc2ccc(-n3c(=O)ccc4cnc5ccc(-c6cnn(C)c6)cc5c43)cc21,KINOMEscan,1 µM,baseline: DMSO control,remaining binding,94%
C=CC(=O)Nc1cccc(-c2cnc3[nH]cc(C(=O)NC(C)(C)C)c3n2)c1,kinase activity,0.1 µM,,inhibition,8%
Cc1cccc(O[C@H]2CCC[C@@H](C(C)CNCc3ccncc3)C2)c1 (relative stereo),"enzyme activity, inhibitor",1 µM,,inhibition,2%
C=CC(=O)N1Cc2nc(-c3cc(-c4cc(Cl)cnc4Cl)c(F)cc3F)n(-c3ccncn3)c2C1,"cell-free assay, inhibitor",1 µM,,inhibition,6%
Cc1ccc(-c2c(/C=C(\C#N)C(=O)NC(C)C)n(CCCO)c3ncnc(N)c23)cc1,"cell-free assay, competition with immobilised ligand",1 µM,,remaining binding,98%
COc1cc(Nc2nccc(-c3cnn4nc(OC)ccc34)n2)cc(C(F)(F)F)c1,"binding, competition with immobilised ligand",1 µM,,remaining binding,84%
CN1CCN(Cc2ccc(-c3ccc(CO[C@H]4CCC[C@@H]4NC(=O)c4cc(-c5cnn(C)c5)cnc4N)cc3)cc2)CC1,"enzyme activity, inhibitor",0.1 µM,,inhibition,2%
COCC12C(=O)NC3C4(C(OC)CC1O)C1CC5(O)C(OC)C(O)C(OC(C)=O)(C1C5OC(=O)c1ccccc1)C3(O)C(OC)C24 (stereo not drawn),"kinase activity, inhibitor, ProQinase kinase profiling",25 µM,baseline: control,remaining activity,105% and 106%
Nc1ncc(-c2cc(-c3cnn(CC(F)(F)F)c3)ncc2F)nc1C(=O)NC1CNCC(F)C1 (stereo not drawn),enzyme activity,1 µM,baseline: DMSO control,remaining activity,90%
C[C@H]1CN(C(=O)c2cn(-c3ccnc(N)n3)c3cc(C#CC4(O)CCCCC4)ccc23)CCN1,"enzyme activity, inhibitor, FRET",1 µM,,inhibition,103%
CC(C)=CC1OC(C)(C)C2C=C3C(=O)C(Cl)=CC(O)C3C3C(O)C4OC4C(=O)C132 (stereo not drawn),"cell-free assay, competition with immobilised ligand",10 µM,,remaining binding,75%
NC(=O)[C@@H](O)C[C@H]1CCc2sc3ncnc(O[C@H]4CC[C@H](N5CCOCC5)CC4)c3c21,"enzyme activity, inhibitor",10 µM,,inhibition,15%
CCn1cc(C(=O)O)c(=O)c2c(N)c(F)c(NC3CCCCC3)cc21,kinase activity,"0.1 µM, added: ATP at Km",,inhibition,3.8%
O=C=[N][Ru-4]123([n]4c5ccc(O)cc5c5c6c(c7cc(F)c[n+]1c7c54)C(=O)NC6=O)[S+]1CC[S+]2CC[S+]3CC1 (stereo not drawn),enzyme activity,"100 nM, human enzyme, added: 10 µM ATP",baseline: untreated,remaining activity,97%

# For quick reference, copied from above:
SMILES,test,setting,scale,quantity,result
C=CC(=O)Nc1cccc(-c2cnc3[nH]cc(C(=O)NC(C)(C)C)c3n2)c1,kinase activity,0.1 µM,,inhibition,8%
